Measurements collected from several papers.
Each line is one published result; not all experiments were run side by side. Numbers after ± are the reported error.
Target: Cytochrome P450 2D6 (CYP2D6, Homo sapiens, UniProt P10635)
Sequence of UniProt P10635 (whole entry, looked up): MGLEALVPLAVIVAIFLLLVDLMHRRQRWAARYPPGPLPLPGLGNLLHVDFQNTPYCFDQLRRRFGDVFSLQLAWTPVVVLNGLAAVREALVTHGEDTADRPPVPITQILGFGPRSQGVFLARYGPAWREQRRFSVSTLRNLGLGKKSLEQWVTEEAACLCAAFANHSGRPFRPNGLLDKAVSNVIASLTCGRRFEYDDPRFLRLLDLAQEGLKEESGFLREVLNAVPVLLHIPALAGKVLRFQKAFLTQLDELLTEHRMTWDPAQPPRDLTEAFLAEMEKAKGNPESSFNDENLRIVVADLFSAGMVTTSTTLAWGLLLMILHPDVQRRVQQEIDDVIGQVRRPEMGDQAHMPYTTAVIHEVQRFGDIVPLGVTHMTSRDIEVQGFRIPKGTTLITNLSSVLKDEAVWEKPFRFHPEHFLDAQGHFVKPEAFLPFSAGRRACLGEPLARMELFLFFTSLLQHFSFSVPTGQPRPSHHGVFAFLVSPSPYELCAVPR

CNC(=O)O/N=C/C(C)(C)[S+](C)[O-] (stereo not shown)  inhibition (inhibitor; human liver microsomes; 2 µM, pH 7.4, with: dextromethorphan): < 0%
CC[C@H]1CN2CCc3c([nH]c4cccc(OC)c34)[C@@H]2C[C@@H]1/C(=C\OC)C(=O)OC  IC50 (enzyme activity, inhibitor; human, liver microsomes): 12.9 µM
CNC(=O)O/N=C/C(C)(C)S(C)(=O)=O  inhibition (inhibitor; human liver microsomes; 10 µM, pH 7.4, with: dextromethorphan): 4.23%
COc1ccc2c(c1)[C@]13CCCC[C@@H]1[C@H](C2)N(C)CC3  AUC(0-inf) (human, plasma; oral, dose not given, day 12, fluoxetine treatment, with: fluoxetine): 1.85 ± 0.8 µM·h
C[C@H](NC(C)(C)C)[C@@H](O)c1cccc(Cl)c1  IC50 (enzyme activity, inhibitor): 13 µM
N#Cc1ccc(C(O)c2ccc(C#N)cc2)cc1  IC50 (inhibitor): 158 µM
C[C@H]1NC(C)(C)CO[C@]1(O)c1cccc(Cl)c1  IC50 (enzyme activity, inhibitor; human suspension hepatocytes; 30 min, protein-free buffer, media concentrations, with: dextromethorphan 1 µM): 6.6 µM
CC[C@@H]1CN2CC[C@@]3(O)C(=Nc4cccc(OC)c43)[C@@H]2C[C@@H]1/C(=C\OC)C(=O)OC  IC50 (enzyme activity, inhibitor; human, liver microsomes): > 45 µM
CNC(C)Cc1ccc2c(c1)OCO2 (stereo not shown)  kinact (inactivator; proteoliposomes; 5 to 100 µM, pH 7.4, with: dextromethorphan substrate): 0.000983 ± 0.0002 s⁻¹
C[C@@H](NC(C)(C)C)C(=O)c1ccc(O)c(Cl)c1  IC50 (enzyme activity, inhibitor): > 50 µM

A few entries again:
CNC(=O)O/N=C/C(C)(C)S(C)(=O)=O  inhibition (inhibitor; human liver microsomes; 10 µM, pH 7.4, with: dextromethorphan): 4.23%
